Results collected from several papers.
MTNR1B: Melatonin receptor type 1B (MTNR1B, Homo sapiens, UniProt P49286)
UniProt P49286, sequence (whole entry, looked up): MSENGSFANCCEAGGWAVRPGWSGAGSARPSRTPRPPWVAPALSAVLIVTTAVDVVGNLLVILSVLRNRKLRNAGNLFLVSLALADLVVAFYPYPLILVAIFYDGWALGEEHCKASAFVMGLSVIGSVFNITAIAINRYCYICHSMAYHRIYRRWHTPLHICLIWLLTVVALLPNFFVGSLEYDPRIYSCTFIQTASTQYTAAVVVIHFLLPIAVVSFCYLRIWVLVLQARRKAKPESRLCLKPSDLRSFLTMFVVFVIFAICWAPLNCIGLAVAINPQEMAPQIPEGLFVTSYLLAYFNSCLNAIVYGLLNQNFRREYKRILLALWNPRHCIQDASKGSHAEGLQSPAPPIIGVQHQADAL
UniProt P42336, sequence (whole entry, unmodified, looked up): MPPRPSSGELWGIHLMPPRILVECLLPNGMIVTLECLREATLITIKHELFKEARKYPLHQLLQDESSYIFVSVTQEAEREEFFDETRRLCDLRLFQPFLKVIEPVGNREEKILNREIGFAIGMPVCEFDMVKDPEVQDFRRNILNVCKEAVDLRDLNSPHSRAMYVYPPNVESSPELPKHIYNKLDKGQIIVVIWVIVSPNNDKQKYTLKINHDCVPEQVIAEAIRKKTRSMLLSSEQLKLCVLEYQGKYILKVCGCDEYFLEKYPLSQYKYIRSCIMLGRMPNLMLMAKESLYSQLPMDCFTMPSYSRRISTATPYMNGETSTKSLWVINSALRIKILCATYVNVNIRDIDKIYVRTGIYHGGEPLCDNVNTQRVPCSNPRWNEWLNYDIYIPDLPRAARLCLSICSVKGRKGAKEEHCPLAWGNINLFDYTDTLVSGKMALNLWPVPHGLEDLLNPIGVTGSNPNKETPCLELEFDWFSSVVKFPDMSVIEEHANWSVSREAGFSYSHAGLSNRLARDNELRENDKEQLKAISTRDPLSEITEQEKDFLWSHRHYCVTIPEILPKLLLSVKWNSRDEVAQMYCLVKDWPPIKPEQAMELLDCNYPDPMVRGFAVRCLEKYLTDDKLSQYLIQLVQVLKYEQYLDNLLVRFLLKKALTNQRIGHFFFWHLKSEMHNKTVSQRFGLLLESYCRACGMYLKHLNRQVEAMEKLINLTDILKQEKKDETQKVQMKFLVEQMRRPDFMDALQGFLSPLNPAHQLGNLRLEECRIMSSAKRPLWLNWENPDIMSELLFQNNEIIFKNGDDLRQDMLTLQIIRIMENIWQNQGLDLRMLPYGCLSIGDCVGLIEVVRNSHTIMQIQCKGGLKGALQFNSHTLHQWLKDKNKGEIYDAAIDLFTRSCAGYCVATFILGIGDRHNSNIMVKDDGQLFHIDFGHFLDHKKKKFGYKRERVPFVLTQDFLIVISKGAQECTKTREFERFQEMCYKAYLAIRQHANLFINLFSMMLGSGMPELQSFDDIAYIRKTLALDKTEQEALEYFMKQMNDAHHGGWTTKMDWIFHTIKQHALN
UniProt Q06187, sequence (whole entry, looked up): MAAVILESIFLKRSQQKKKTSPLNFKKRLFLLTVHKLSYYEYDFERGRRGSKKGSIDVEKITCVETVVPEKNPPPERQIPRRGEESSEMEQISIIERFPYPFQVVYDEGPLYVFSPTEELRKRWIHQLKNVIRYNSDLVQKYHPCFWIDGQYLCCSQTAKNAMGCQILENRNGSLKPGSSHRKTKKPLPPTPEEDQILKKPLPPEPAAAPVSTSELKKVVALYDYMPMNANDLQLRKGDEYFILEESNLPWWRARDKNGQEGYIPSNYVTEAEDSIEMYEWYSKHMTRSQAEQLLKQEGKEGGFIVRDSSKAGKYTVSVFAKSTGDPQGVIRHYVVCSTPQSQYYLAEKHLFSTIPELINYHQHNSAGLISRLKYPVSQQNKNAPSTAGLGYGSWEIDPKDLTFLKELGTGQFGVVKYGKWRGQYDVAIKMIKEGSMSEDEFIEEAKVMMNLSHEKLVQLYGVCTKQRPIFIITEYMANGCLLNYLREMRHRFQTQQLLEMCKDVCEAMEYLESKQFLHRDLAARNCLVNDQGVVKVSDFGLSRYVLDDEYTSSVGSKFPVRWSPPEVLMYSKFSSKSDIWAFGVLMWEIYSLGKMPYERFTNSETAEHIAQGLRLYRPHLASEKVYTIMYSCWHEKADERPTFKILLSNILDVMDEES
UniProt P23458, sequence (whole entry, looked up): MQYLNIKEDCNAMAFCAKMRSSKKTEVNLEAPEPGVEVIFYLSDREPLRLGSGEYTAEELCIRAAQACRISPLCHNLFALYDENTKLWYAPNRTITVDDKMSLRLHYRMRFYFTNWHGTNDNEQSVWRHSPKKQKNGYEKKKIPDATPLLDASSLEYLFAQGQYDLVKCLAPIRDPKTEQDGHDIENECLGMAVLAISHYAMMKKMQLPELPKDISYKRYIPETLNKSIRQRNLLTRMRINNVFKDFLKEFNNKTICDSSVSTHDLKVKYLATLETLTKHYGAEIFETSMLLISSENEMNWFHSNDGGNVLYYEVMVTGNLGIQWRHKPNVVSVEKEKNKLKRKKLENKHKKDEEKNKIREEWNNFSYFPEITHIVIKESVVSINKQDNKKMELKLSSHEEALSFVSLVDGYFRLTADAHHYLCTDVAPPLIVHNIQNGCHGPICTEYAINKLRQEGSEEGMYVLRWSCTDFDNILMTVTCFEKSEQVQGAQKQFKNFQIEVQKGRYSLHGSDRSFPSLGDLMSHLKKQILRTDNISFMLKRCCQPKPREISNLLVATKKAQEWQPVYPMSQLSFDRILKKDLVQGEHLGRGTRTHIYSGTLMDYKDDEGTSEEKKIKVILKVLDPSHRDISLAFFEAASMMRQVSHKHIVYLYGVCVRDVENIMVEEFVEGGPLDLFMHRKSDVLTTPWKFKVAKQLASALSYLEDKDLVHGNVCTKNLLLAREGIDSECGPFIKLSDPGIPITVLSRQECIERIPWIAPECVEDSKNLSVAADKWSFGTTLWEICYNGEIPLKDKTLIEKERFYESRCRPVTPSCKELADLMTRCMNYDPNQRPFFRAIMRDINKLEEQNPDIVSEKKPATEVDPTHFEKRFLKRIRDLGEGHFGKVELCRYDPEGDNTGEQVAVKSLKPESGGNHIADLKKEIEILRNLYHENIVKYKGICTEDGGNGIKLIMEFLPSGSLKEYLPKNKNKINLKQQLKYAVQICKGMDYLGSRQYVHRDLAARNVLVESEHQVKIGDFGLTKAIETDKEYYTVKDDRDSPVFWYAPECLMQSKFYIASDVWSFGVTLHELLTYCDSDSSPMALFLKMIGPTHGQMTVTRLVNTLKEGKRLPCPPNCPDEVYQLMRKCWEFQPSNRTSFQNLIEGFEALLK
UniProt Q96PF2, sequence (whole entry, looked up): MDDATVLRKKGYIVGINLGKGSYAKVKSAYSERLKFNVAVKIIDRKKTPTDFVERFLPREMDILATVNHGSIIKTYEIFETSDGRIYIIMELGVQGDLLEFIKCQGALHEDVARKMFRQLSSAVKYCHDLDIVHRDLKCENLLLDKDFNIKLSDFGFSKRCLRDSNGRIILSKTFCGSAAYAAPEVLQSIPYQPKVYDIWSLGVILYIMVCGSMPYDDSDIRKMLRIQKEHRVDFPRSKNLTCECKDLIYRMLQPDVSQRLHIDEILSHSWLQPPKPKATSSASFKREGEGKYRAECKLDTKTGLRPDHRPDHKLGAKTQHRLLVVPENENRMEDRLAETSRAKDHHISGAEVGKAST
UniProt P22455, sequence (whole entry, looked up): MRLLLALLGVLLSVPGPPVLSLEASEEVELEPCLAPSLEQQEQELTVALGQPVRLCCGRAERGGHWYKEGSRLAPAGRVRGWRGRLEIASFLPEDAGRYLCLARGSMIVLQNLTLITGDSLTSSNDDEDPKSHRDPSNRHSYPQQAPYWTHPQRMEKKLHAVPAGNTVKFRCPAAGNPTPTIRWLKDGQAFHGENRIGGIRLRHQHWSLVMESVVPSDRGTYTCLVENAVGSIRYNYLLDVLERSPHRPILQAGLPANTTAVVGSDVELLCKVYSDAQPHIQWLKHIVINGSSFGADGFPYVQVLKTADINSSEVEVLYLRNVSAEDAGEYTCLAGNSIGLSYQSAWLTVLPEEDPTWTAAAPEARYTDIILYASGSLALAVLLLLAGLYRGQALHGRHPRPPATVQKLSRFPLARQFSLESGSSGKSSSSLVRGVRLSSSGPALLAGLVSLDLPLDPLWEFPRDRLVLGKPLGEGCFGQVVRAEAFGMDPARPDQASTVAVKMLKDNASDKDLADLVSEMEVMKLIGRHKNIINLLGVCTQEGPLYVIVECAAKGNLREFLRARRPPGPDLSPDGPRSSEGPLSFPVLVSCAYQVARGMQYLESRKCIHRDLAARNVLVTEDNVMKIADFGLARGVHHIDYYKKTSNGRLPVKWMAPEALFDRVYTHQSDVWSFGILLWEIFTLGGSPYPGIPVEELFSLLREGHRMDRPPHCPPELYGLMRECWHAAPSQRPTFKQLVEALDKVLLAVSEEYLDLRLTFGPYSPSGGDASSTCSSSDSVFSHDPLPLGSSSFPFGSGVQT
UniProt P50613, sequence (whole entry, looked up): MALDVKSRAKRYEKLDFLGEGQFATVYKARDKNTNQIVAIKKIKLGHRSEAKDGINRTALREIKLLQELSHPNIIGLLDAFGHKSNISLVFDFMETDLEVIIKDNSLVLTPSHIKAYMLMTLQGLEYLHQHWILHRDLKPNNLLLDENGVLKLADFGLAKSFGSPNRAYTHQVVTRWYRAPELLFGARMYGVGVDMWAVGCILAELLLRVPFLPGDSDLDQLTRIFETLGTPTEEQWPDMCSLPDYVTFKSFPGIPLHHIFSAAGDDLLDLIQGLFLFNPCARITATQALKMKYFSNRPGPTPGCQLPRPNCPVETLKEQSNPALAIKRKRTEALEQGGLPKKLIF

With Nc1ncnc2occ(-c3ccc(NC(=O)Nc4cc(C(F)(F)F)ccc4F)cc3)c12 the remaining signal was 65% (PIK3CA (Homo sapiens, UniProt P42336, H1047L); cell-free assay, inhibitor; 20 µM).
The Emax of COc1cc(I)c2[nH]cc(CCNC(C)=O)c2c1 is reported as 77% (MTNR1B; GTPγS binding, agonist, radiometric; cell membranes).
The remaining signal of C1=C/COCc2cc(ccc2OCCN2CCCC2)Nc2nccc(n2)-c2cccc(c2)COC/1 is reported as 100% (Tyrosine-protein kinase JAK1, JH1 (JAK1, Homo sapiens, UniProt P23458); cell-free assay; 0.1 µM).
The inhibition of CCN(O)N=Nc1ccc(S(=O)(=O)Nc2onc(C)c2C)cc1 is reported as 24.4% (DPPH scavenging, absorbance; 240 µg/mL).
With O=C(Nc1c[nH]nc1C(=O)NC1CCNCC1)c1cc(F)cc(F)c1 the ΔTm was greater than 6 °C (CDKL5 (Homo sapiens, UniProt O76039, T169D/Y171E); thermal stability, DSF).
The inhibition of Cc1cccc(N(O)N=Nc2ccc(S(=O)(=O)Nc3onc(C)c3C)cc2)c1 is reported as 24.9% (DPPH scavenging, absorbance; 60 µg/mL).
Cc1cc([C@@H](C)Nc2ccccc2C(=O)O)c2nc(N3CCC(F)(F)CC3)c(C#N)c(=O)n2c1 has a remaining binding of 94% (BTK (Homo sapiens, UniProt Q06187); binding, competition with immobilised ligand; 1 µM).
With C=CC(=O)N1CCC(COCC(=O)N2CCN(c3nc(-c4cnc(N)nc4C(F)F)nc(N4CCOC[C@@H]4C)n3)CC2)CC1 the remaining binding was 97% (CDK7 (Homo sapiens, UniProt P50613); binding, competition with immobilised ligand; 1 µM).
The Emax of CCc1ccc2scc(CCNC(C)=O)c2c1 is reported as 87% (MTNR1B; GTPγS binding, agonist, radiometric; cell membranes).
For CCCCC(=O)Nc1ccc(-c2ccc3ncn(CCC)c(=O)c3c2)cn1, the remaining binding was 63% (PIK3CA (Homo sapiens, UniProt P42336, E545K); binding, competition with immobilised ligand; 0.5 µM).
With CNc1ncc2c(/C=C/C(=O)N3CCC(OC)CC3)nn(Cc3cccc(C(F)(F)F)c3)c2n1 the remaining activity was 105% (TSSK2 (Homo sapiens, UniProt Q96PF2); enzyme activity, inhibitor, radiometric; 1 µM).
COc1cc(-c2cncc3c2CN(C)Cc2cc(N4CCNCC4)ccc2-3)cc(OC)c1OC has a remaining activity of 111% (FGFR4 (Homo sapiens, UniProt P22455); enzyme activity, inhibitor; 1 µM).
For Cc1cc(C)n(-c2ccc(C(=O)N3CCC(C(=O)Nc4ccc(S(N)(=O)=O)cc4)CC3)cc2)n1, the IC50 was 37.2 nM (CA9 (Homo sapiens, UniProt Q16790); enzyme activity, inhibitor).

Repeated from above:
For CCCCC(=O)Nc1ccc(-c2ccc3ncn(CCC)c(=O)c3c2)cn1, the remaining binding was 63% (PIK3CA (Homo sapiens, UniProt P42336, E545K); binding, competition with immobilised ligand; 0.5 µM).
Cc1cc([C@@H](C)Nc2ccccc2C(=O)O)c2nc(N3CCC(F)(F)CC3)c(C#N)c(=O)n2c1 has a remaining binding of 94% (BTK (Homo sapiens, UniProt Q06187); binding, competition with immobilised ligand; 1 µM).
